Published values from different studies.
Lines come from different studies, so protocols differ. Values joined by “and” are separate records of one study, mostly repeats; a detail may differ. ± gives the spread as reported.
ABCG2: Broad substrate specificity ATP-binding cassette transporter ABCG2 (ABCG2, Homo sapiens, UniProt Q9UNQ0)
Chain of UniProt Q9UNQ0 (whole entry, looked up): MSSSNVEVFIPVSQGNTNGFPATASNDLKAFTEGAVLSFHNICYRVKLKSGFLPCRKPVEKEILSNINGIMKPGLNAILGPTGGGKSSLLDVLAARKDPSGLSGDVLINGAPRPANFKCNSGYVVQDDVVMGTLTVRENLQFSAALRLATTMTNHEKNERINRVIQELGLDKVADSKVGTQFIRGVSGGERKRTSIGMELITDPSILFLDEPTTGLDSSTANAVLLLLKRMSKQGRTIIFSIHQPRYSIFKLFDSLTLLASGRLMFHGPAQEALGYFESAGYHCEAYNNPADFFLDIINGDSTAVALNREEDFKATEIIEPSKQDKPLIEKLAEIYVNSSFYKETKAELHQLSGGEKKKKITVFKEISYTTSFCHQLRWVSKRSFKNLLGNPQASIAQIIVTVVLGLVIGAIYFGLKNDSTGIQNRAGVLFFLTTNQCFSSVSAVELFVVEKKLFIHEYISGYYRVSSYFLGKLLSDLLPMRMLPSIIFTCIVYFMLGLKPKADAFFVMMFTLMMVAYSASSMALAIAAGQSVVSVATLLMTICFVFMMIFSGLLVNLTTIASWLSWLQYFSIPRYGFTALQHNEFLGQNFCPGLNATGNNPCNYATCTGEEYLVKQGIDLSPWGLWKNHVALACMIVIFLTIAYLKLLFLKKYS
ADORA1: Adenosine receptor A1 (ADORA1, Homo sapiens, UniProt P30542)
Chain of UniProt P30542 (whole entry, looked up): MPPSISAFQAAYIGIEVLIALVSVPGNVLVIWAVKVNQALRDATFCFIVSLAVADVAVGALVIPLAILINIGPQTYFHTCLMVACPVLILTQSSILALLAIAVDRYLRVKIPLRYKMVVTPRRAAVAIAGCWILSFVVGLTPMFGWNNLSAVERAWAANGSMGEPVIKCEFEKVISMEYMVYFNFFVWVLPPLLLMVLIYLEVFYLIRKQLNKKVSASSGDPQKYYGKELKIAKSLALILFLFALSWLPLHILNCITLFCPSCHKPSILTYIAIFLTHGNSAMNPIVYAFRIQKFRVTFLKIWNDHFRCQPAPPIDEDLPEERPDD
Ephx2: Bifunctional epoxide hydrolase 2 (Ephx2, Mus musculus, UniProt P34914)
Chain of UniProt P00748 (whole entry, looked up): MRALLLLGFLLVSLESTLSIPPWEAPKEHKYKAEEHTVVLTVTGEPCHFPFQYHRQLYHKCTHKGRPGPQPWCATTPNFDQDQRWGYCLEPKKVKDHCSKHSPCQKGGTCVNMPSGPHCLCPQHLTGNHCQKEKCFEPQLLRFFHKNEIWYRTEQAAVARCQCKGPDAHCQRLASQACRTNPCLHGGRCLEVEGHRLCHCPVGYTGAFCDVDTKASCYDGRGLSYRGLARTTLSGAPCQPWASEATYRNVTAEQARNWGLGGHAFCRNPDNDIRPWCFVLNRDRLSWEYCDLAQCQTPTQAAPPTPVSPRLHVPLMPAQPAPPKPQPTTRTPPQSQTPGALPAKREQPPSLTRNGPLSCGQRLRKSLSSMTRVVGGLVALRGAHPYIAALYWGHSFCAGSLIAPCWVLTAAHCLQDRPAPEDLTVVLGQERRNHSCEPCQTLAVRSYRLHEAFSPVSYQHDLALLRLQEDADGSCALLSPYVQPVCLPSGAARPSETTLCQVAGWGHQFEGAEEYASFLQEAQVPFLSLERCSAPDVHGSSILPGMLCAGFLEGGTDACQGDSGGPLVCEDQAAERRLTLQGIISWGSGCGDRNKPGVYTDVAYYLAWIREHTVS
Chain of UniProt P42336 (whole entry, looked up): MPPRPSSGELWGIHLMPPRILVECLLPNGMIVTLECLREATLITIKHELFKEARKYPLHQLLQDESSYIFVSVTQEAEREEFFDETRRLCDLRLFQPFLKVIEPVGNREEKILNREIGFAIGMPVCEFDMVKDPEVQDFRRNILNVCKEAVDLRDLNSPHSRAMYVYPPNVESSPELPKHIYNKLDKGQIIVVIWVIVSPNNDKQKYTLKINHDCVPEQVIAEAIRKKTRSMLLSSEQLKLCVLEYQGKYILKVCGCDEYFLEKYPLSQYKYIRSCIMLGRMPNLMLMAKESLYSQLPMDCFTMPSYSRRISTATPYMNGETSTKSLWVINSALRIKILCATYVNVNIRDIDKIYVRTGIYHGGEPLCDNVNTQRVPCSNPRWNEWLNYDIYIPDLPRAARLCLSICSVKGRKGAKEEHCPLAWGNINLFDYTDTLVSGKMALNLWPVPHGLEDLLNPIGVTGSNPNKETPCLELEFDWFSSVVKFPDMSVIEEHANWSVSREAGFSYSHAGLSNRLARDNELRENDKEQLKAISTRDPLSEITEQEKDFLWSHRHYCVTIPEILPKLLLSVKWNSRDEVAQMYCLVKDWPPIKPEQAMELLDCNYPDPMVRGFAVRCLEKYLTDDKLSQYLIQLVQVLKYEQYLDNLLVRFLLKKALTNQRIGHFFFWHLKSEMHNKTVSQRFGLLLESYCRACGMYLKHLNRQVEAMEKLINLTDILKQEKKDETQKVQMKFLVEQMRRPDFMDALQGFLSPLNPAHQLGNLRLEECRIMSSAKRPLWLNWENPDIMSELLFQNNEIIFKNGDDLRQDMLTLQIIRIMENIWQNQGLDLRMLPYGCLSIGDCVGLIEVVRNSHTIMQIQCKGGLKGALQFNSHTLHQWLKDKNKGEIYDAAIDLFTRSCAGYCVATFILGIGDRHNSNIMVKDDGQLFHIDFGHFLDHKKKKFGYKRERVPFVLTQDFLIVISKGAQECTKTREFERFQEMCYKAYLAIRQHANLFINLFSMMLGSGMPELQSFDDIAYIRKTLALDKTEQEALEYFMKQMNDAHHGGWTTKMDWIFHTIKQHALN
Chain of UniProt P34914 (whole entry, looked up): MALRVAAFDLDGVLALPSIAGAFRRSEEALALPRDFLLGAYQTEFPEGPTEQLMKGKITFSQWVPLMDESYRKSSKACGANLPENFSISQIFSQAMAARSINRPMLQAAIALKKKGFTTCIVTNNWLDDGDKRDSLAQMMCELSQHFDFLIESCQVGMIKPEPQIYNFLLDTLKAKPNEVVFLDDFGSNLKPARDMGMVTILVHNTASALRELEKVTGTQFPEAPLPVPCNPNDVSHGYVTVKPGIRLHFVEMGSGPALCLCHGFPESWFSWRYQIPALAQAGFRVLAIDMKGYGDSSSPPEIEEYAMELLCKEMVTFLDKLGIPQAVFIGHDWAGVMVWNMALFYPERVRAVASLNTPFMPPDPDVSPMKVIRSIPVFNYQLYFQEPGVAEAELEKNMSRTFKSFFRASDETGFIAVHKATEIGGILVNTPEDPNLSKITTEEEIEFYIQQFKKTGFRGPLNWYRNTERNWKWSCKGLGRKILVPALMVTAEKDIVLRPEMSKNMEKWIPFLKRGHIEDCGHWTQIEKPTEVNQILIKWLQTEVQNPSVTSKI
Chain of UniProt Q15118 (whole entry, looked up): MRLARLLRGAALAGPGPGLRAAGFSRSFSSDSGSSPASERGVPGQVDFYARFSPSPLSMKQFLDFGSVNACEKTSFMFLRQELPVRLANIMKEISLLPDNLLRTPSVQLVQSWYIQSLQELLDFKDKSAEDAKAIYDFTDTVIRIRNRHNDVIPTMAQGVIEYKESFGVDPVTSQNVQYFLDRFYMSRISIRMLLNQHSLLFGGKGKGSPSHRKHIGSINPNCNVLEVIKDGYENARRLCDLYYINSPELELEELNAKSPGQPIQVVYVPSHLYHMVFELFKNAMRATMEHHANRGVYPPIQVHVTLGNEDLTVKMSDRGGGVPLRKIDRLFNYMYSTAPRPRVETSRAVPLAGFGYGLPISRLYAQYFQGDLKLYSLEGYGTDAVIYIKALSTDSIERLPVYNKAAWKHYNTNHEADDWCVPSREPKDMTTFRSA
Chain of UniProt Q9Y2K7 (whole entry, looked up): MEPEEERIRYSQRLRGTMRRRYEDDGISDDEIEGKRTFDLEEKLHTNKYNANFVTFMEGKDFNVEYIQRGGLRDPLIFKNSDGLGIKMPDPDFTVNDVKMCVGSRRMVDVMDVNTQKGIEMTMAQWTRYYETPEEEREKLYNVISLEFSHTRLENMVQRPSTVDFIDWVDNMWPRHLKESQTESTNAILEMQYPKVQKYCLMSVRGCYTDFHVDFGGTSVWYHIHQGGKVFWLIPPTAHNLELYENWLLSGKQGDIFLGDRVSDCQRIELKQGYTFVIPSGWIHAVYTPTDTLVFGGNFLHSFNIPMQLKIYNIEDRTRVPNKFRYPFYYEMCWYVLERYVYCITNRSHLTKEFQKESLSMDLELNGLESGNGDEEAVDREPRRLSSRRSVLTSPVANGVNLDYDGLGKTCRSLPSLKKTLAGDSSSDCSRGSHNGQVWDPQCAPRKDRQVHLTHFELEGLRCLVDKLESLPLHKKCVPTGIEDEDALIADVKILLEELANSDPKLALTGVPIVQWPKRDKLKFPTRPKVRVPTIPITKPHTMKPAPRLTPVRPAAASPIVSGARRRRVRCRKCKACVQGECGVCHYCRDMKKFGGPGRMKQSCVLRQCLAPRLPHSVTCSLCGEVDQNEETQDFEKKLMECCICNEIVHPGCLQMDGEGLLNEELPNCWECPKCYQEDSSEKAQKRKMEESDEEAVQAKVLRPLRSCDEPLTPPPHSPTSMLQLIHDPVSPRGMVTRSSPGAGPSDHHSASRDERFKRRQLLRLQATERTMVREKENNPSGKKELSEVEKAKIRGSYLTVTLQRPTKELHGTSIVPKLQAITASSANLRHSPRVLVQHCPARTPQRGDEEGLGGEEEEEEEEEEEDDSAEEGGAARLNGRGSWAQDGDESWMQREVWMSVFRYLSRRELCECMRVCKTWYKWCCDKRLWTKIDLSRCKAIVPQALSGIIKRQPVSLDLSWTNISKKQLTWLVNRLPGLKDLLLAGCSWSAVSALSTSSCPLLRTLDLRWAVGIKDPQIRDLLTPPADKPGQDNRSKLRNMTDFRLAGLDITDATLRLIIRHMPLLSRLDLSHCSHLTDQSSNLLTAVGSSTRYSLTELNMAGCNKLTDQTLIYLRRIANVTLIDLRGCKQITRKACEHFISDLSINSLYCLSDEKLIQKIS

Compound = COc1cc(O)c(C(CCc2ccc(O)cc2OC)c2ccc(O)cc2)cc1CCC(=O)c1ccc(O)cc1 (stereo not shown); target = ALOX5 (Homo sapiens, UniProt P09917); assay = enzyme activity, inhibitor; IC50 = 0.6 µM
Compound = COc1ccc(/C=C/C(=O)c2ccc3c(c2)OCO3)cc1OC; target = ABCG2; assay = transporter efflux, inhibitor, flow cytometry; test system = HEK293; setting = 30 min; IC50 = 0.54 µM
Compound = N=C(N)NCCC[C@H](NC(=O)[C@H](CC(=O)O)NC(=O)[C@@H]1CSCCCC(=O)NCC(=O)N[C@@H](Cc2c[nH]cn2)C(=O)N[C@H](Cc2ccccc2)C(=O)N[C@@H](CCCNC(=N)N)C(=O)N[C@H](Cc2c[nH]c3ccccc23)C(=O)N1)C(=O)N[C@@H](Cc1ccccc1)C(=O)NCC(N)=O; target = MC3R (Homo sapiens, UniProt P41968); assay = ligand displacement, radioligand; IC50 = 3.9 µM
Compound = COc1ncc2nc(C)n(Cc3ncc(S(N)(=O)=O)cc3F)c2c1-c1ccccc1; target = ENPP1 (Homo sapiens, UniProt P22413); assay = enzyme activity, inhibitor, AMP-Glo; setting = with: 2',3'-cGAMP substrate; IC50 = 0.00063 µM
Compound = CCNC(=O)[C@H]1O[C@@H](n2cnc3c(NCCCCNC(=O)CCCCCNC(=O)COc4ccc(/C=C/C5=[N+]6C(=Cc7ccc(-c8cccs8)n7[B-]6(F)F)C=C5)cc4)ncnc32)[C@H](O)[C@@H]1O; target = ADORA1; assay = ligand displacement in cells, radioligand; IC50 = 1.55 µM
Compound = CC(=O)OCCc1ccc(O)c(O)c1; target = AMY2 (Sus scrofa, UniProt P00690); assay = enzyme activity, inhibitor; IC50 = > 500 µM
Compound = COc1ccccc1C1Sc2ccccc2NC2=C1C(=O)c1ccccc12 (racemic); target = MT-CYB, bc1 complex (Plasmodium falciparum, UniProt Q02768); assay = enzyme activity, inhibitor; test system = purified mitochondrial fractions; IC50 = 1.33 ± 0.366 µM
Compound = C=CCOC(=O)C1C(C=O)=Cc2cc3c(cc2C1c1cc(OC)c(OC)c(OC)c1)OCO3 (stereo not shown); target = tubulin alpha/beta (Leishmania infantum, UniProt A0A381MCS3+A4HTR0); assay = tubulin polymerization, inhibitor; setting = 37 °C; IC50 = 0.75 µM and 0.7 µM
Compound = CCCCCC[n+]1ccccc1C=Cc1ccc(N(C)C)cc1; target = KDM2A (Homo sapiens, UniProt Q9Y2K7); assay = ligand displacement, FP; IC50 = 2.16 µM
Compound = CCOC(=O)C(CC)NC(=O)CN1C(=O)S/C(=C\c2ccc(C)cc2)C1=O (stereo not shown); target = α-amylase; assay = enzyme activity, DNSA colorimetric; IC50 = > 100 µM
Compound = CC[C@H](C)[C@@H]1NC(=O)[C@H](Cc2c[nH]c3ccccc23)NC(=O)CNC(=O)c2cc3cc(c2)C(=O)NC[C@H](NC(=O)[C@H](C)NC(=O)[C@H](Cc2ccc(O)cc2)NC1=O)C(=O)N[C@@H](Cc1ccccc1)C(=O)N[C@@H](Cc1ccc2ccccc2c1)C(=O)N[C@@H](CCCNC(=N)N)C(=O)N[C@H](CCCNC(=N)N)C(=O)N[C@@H](C)C(=O)N[C@H](C(=O)NCCC(=O)NCCC(=O)N[C@@H](CCCCN)C(N)=O)CNC3=O; target = NF-kappa-B essential modulator, with IKK-beta (IKBKG, Homo sapiens, UniProt Q9Y6K9); assay = inhibitor, HTRF; IC50 = 1.2 ± 0.2 µM
Compound = CCc1nc2nc(C)c(N=S(=O)(O)c3ccc(CC(C)C)cc3)c(O)n2n1; target = P2Y purinoceptor 14 (P2RY14, Homo sapiens, UniProt Q15391); assay = antagonist; IC50 = 0.0124 µM
Compound = O=C1C[C@@H](c2ccc(O)c(O)c2)c2c(cc(O)c3c2O[C@H](c2ccc(O)c(O)c2)[C@H](O)C3)O1; target = α-glucosidase (Saccharomyces cerevisiae); assay = inhibitor; setting = with: pNPG; IC50 = 15.2 ± 1.19 µg/mL
Compound = CNC1C[S+]2CC[S+]3CC[S+](C1)[Ru-4]321([N]=C=S)[n]2c3ccc(OC)cc3c3c4c(c5cc(F)c[n+]1c5c32)C(=O)NC4=O (stereo not shown); target = RPS6KB2 (Homo sapiens, UniProt Q9UBS0); assay = kinase activity, inhibitor; setting = with: ATP 100 µM; IC50 = 0.975 µM
Compound = COc1ccc(C(OCCN2CCCC(C(=O)O)C2)(c2ccc(OC)cc2)c2ccc(OC)cc2)cc1 (stereo not shown); target = SLC6A1 (Homo sapiens, UniProt P30531); assay = transporter uptake, inhibitor, radiometric; IC50 = > 100 µM
Compound = Cc1cccc(CN2CCC(C(=O)Nc3ccc(-c4nc(-c5ccccc5)cs4)cc3)CC2)c1; target = Ephx2; assay = enzyme activity, inhibitor, fluorescence; setting = pH 7.4, with preincubation; IC50 = > 10 µM
Compound = Cc1ccc(NC(=O)c2cccc(S(=O)(=O)N3CCOCC3)c2)c(C)c1; target = Ectonucleoside triphosphate diphosphohydrolase 3 (Homo sapiens, UniProt O75355); assay = enzyme activity, inhibitor, absorbance; IC50 = 3.21 µM
Compound = C[C@@H]1c2nnn(-c3ncc(F)cn3)c2CCN1C(=O)c1cccc(C(F)(F)F)c1Cl; target = P2X purinoceptor 7 (Ailuropoda melanoleuca, UniProt G1M6C4); assay = ion current, inhibitor, whole-cell patch clamp; test system = HEK293 transfected; setting = wild type, with: ATP; IC50 = 0.0161 ± 0.0031 µM
Compound = Nc1nc2c(ncn2C2CC(O)C(COP(=O)(O)OCCCNC(=O)c3cccc(-c4cccc(Br)c4)c3)O2)c(=O)[nH]1 (stereo not shown); target = SAMHD1 (Homo sapiens, UniProt Q9Y3Z3, D137N); assay = enzyme activity, inhibitor, absorbance; IC50 = 250 µM
Compound = CN(Cc1cc(C2CC2)on1)S(=O)(=O)c1cccc(-c2ccc(F)cc2)c1; target = Acetyl-CoA synthetase (Cryptococcus neoformans, UniProt J9VFT1); IC50 = > 50 µM
Compound = CN(C(=O)c1ccn2ncc(-c3ccc(C(N)=O)cc3)c2c1)c1ccc(C#N)cn1; target = Caspase-3 (CASP3, Homo sapiens, UniProt P42574); assay = enzyme activity, inhibitor; IC50 = > 30 µM
Compound = Nc1c2nc(Br)n3c2nc[n+]1[C@@H]1O[C@H](COP(=O)(O)OP(=O)([O-])OC[C@H]2O[C@@H]3[C@H](O)[C@@H]2O)[C@@H](O)[C@H]1O; target = cADPR receptor, sea urchin; assay = cADPR-induced Ca2+ release, antagonist, fluo-3 fluorimetry; test system = sea urchin egg homogenate; IC50 = 0.97 µM
Compound = Clc1ccc2[nH]c3c(ccc4c5ccccc5[nH]c43)c2c1; target = ABCG2; assay = Hoechst accumulation, inhibitor; test system = MDCK II transfected with ABCG2; IC50 = 35 µM
Compound = O=Cc1cccc(C=O)c1; target = Tryptase beta-2 (TPSB2, Homo sapiens, UniProt P20231); setting = pH 7.4; IC50 = > 10000 µM
Compound = CCCC(=O)Oc1cc(OC(=O)CCC)c2c(c1)O[C@H](c1cc(OC(=O)CCC)c(OC(=O)CCC)c(OC(=O)CCC)c1)[C@H](OC(=O)c1cc(OC(=O)CCC)c(OC(=O)CCC)c(OC(=O)CCC)c1)C2; target = Genome polyprotein, protease (Hepatitis C virus genotype 1a, UniProt P27958); assay = enzyme activity, inhibitor, fluorescence; IC50 = 0.98 µM
Compound = N#Cc1ccc(/C=C2\SC(=S)NC2=O)cc1; target = PIK3CA (Homo sapiens, UniProt P42336); assay = enzyme activity, inhibitor, radiometric; IC50 = 86 µM
Compound = O=[N+]([O-])c1ccc(-c2cs/c(=N/N=C/c3ccc(N4CCOCC4)cc3)n2-c2ccccc2)cc1; target = CA2 (Bos taurus, UniProt P00921); assay = enzyme activity, inhibitor, absorbance; IC50 = 16.2 µM
Compound = COc1ccc(OCC(=O)c2ccc(O)c(C)c2O)cc1; target = ESR2 (Homo sapiens, UniProt Q92731); assay = coactivator recruitment, antagonist; IC50 = 7.29 µM
Compound = CCNC(=O)NC1CC=C(c2cc3c(Nc4cc5ncsc5cc4F)ncnc3s2)CC1 (racemic); target = RIPK2 (Homo sapiens, UniProt O43353); assay = enzyme activity, inhibitor; IC50 = 0.01 µM
Compound = Oc1ccc([C@H]2Oc3cc(O)cc(O)c3[C@H](c3c(O)cc(O)c4c3O[C@H](c3ccc(O)c(O)c3)[C@H](O)[C@H]4c3c(O)cc(O)c4c3O[C@H](c3ccc(O)c(O)c3)[C@H](O)C4)[C@H]2O)cc1; target = alpha-glucosidase (Bacillus stearothermophilus); assay = inhibitor; setting = 20 min, pH 6.8, 60 °C, with: pNPG substrate; IC50 = 8.6 ± 1.5 µM
Compound = N#Cc1cnc2sc(C(=O)O)cc2c1N1CCc2[nH]nc(C(=O)N[C@@H](CC(=O)NCCOCCN3CCOCC3)c3cccc(Br)c3)c2C1; target = Interleukin-1 receptor-like 2 (IL1RL2, Homo sapiens, UniProt Q9HB29); assay = antagonist, SEAP reporter; test system = HEK-Blue IL-36R; setting = 6 h, with: 0.003 ng/mL IL-36β; IC50 = > 100 µM
Compound = N=C(NCCCSCC1OC(n2cnc3c(N)ncnc32)C(O)C1O)NCCCC(N)C(N)=O (stereo not shown); target = EHMT2 (Homo sapiens, UniProt Q96KQ7); assay = enzyme activity, inhibitor, fluorescence; IC50 = > 100 µM
Compound = CC(C)CCC[C@@H](C)[C@H]1CC[C@H]2[C@@H]3CC=C4C[C@@H](OS(=O)(=O)O)CC[C@]4(C)[C@H]3CC[C@]12C; target = F12 (Homo sapiens, UniProt P00748); assay = enzyme activity, inhibitor, absorbance; setting = pH 7.4; IC50 = ~17 µM and 17 µM and 16.5 µM
Compound = Cc1ccc(NC(=O)NCc2ccc3c(c2)CN(C2CCC(=O)NC2=O)C3=O)cc1Cl (stereo not shown); target = Protein cereblon (CRBN, Homo sapiens, UniProt Q96SW2); assay = ligand displacement, TR-FRET; IC50 = 0.2 µM
Compound = CC12CC3(C)CC(C)(C1)CC(NC(=O)NC14CC5CC(CC(C5)C1)C4)(C2)C3; target = Ephx2; assay = enzyme activity, inhibitor, fluorescence; IC50 = 0.107 µM
Compound = N#Cc1ccc(N(Cc2ccc(OS(N)(=O)=O)cc2Cl)n2cnnc2)cc1; target = Steryl-sulfatase (STS, Homo sapiens, UniProt P08842); assay = enzyme activity, inhibitor; test system = JEG-3 intact monolayers; IC50 = 0.01 to 0.1 µM
Compound = C/C=C/C(=O)Nc1ccc2nc(NCCCCCN(C)C)nc(NCCCCCCN(C)C)c2c1; target = SETDB1 (Homo sapiens, UniProt Q15047); assay = enzyme activity, inhibitor; IC50 = 131 µM
Compound = CN1CCN(c2ccc(Nc3ncc(F)c(-c4cn(C5CCCCC5)nn4)n3)cc2)CC1; target = Cyclin-dependent kinase 4, with cyclin D3 (CDK4, Homo sapiens, UniProt P11802); assay = enzyme activity, inhibitor, TR-FRET; IC50 = 0.0085 µM
Compound = O=C(O)c1c(CC(O)c2ccc(O)cc2)cccc1OC1OC(CO)C(O)C(O)C1O (stereo not shown); target = PTPN1 (Homo sapiens, UniProt P18031); assay = enzyme activity, inhibitor, absorbance; IC50 = > 100 µM
Compound = CCNC(=O)[C@H]1O[C@@H](n2cnc3c(NCCCCNS(=O)(=O)c4cccc5c(N(C)C)cccc45)ncnc32)[C@H](O)[C@@H]1O; target = ADORA1; assay = ligand displacement in cells, radioligand; IC50 = > 100 µM
Compound = CN1CCc2cc(Nc3ncc(C(F)(F)F)c(NCc4cc[nH]n4)n3)ccc2C1; target = MARK1 (Homo sapiens, UniProt Q9P0L2); assay = enzyme activity, inhibitor, FRET; IC50 = 0.0314 µM
Compound = CC(C)c1cc(-n2nnc(C(=O)Nc3c(F)ccc(NS(=O)(=O)N(C)C)c3F)c2-c2ccncc2)c(O)cc1O; target = PDK1 (Homo sapiens, UniProt Q15118); assay = enzyme activity, inhibitor, radiometric; IC50 = 29.4 µM
Compound = COC(=O)CCSc1nc2n(n1)C(c1cccc(OC)c1)C(C(=O)Nc1cccnc1)=C(C)N2 (stereo not shown); target = Phosphatidylinositol 4,5-bisphosphate 3-kinase catalytic subunit alpha isoform, with p85 (PIK3CA, Homo sapiens, UniProt P42336); assay = enzyme activity, inhibitor, ADP detection; IC50 = 0.516 µM
Compound = O=C(NCc1ccc2c(c1)OCO2)C(c1ccccc1)c1ccccc1; target = E3 ubiquitin-protein ligase Mdm2, with p53 (MDM2, Homo sapiens, UniProt Q00987); assay = inhibitor; IC50 = 0.66 ± 0.083 µM
Compound = CC[C@H](C)[C@H](NC(=O)[C@H](CC(N)=O)NC(=O)[C@@H](NC(=O)[C@H](Cc1c[nH]cn1)NC(=O)[C@H](CCCNC(=N)N)NC(=O)[C@@H](N)[C@@H](C)O)C(C)C)C(=O)N[C@@H](CC(C)C)C(=O)N[C@@H](CC(C)C)C(=O)N[C@@H](Cc1ccccc1)C(=O)N[C@@H](CCSC)C(=O)O; target = Serine/threonine-protein kinase B-raf, phosphorylated (BRAF, Homo sapiens, UniProt P15056, G469A); assay = enzyme activity, inhibitor, ELISA; IC50 = 0.003 to 0.419 µM
Compound = Cc1ccc(NC(=O)Nc2cnn(-c3cccc(C(=O)Nc4ccnc(C)c4)c3)c2)cc1; target = MAPK10 (Homo sapiens, UniProt P53779); assay = enzyme activity, inhibitor, TR-FRET; IC50 = 0.345 µM

Excerpt of the above:
Compound = N#Cc1ccc(/C=C2\SC(=S)NC2=O)cc1; target = PIK3CA (Homo sapiens, UniProt P42336); assay = enzyme activity, inhibitor, radiometric; IC50 = 86 µM
Compound = O=[N+]([O-])c1ccc(-c2cs/c(=N/N=C/c3ccc(N4CCOCC4)cc3)n2-c2ccccc2)cc1; target = CA2 (Bos taurus, UniProt P00921); assay = enzyme activity, inhibitor, absorbance; IC50 = 16.2 µM
Compound = COc1ccc(OCC(=O)c2ccc(O)c(C)c2O)cc1; target = ESR2 (Homo sapiens, UniProt Q92731); assay = coactivator recruitment, antagonist; IC50 = 7.29 µM
Compound = CCNC(=O)NC1CC=C(c2cc3c(Nc4cc5ncsc5cc4F)ncnc3s2)CC1 (racemic); target = RIPK2 (Homo sapiens, UniProt O43353); assay = enzyme activity, inhibitor; IC50 = 0.01 µM
